# Measured values gathered from unrelated publications.
# A part holds a random share of what one study measured. Changes are numbered by the printed parent chain.

# Block 1 — method: DHFR PCA, deep sequencing; matrix: yeast; together with: (+)-ABA 0.11 µM; baseline: wild-type fitted maximum; reading: higher = stronger binding
# Target: ABI1, truncated, D143A, DHFR fusion (Arabidopsis thaliana)
# Setting: methotrexate growth selection, single substitutions
# Starting sequence: PYL1, truncated, DHFR fusion (Arabidopsis thaliana); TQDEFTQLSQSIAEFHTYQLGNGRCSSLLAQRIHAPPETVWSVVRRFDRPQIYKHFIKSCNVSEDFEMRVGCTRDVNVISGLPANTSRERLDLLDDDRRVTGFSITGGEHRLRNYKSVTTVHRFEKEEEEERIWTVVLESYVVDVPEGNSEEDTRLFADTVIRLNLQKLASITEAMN; partner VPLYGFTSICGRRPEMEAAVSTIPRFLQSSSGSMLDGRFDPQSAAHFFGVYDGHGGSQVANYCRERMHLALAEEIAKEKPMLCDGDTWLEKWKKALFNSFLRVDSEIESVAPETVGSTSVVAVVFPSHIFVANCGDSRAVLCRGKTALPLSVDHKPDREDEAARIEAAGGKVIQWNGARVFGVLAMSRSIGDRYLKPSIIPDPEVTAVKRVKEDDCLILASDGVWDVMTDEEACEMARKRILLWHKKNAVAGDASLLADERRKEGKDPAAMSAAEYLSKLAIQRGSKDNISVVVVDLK
Variant,relative binding score [%]
P146F,-7.87
T86K,12.9
G21A,30
R163Y,-6.77
G21I,16.1
L112N,-6.8
G71N,1.7
L169H,-2.8
R90N,1.93
A175L,12
R99D,-5.86
K116Q,28
R155P,-3.91
E130H,31.1
D75E,58
I52Y,8.92
T120E,-7.94

# Block 2 — method: RNA Bind-n-Seq; form: RNA; matrix: in vitro; concentration: 365 nM; baseline: no-protein control; reading: higher = stronger binding
# Target: RNA binding protein fox-1 homolog 2, RRM domain, GST-SBP tag (RBFOX2, Homo sapiens, UniProt O43251-10, residues 100-194)
# Setting: natural RNA segment, single round, ends assumed
# Residues (chain): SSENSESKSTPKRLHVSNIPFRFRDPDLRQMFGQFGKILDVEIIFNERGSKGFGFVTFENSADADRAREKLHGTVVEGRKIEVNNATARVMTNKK
Strand,RBNS enrichment (R)
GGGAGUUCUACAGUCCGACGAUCAGUUUACUGCAAGACAGCUGCGCUGUCAAGACUGAGCUGGCUUCAGGCUGUGUCCGAGCUGUGUCACAUGCAGCUCUACCCACGCUUUUAAACUCAGGAAUGCACACCUAUGGAAUUCUCGGGUGCCAA,0.269
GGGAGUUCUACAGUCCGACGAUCGUUUGUGAAGGCAGCAGUUAAGGGCACAAAGACAGCCAUGGGGACAUUUAUGUAAAUAUGUUUAAUUGCCACACUGCAGCUGAACGGUGUGUAGUAUUUUCCCAGUCAGCUGGAAUUCUCGGGUGCCAA,0.643
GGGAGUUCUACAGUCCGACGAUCUUUAAAACCAUCUUGAAAGAACCCUUAUUGGCAUAUGCAGGAGACAUCUGCUCAUUGUCUAAUGCCUGACCCCCAUUCAUUUAGUUAUUCAAUAUAGACUUGCCCAAUUAUGGAAUUCUCGGGUGCCAA,0.506
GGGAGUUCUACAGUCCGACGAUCUUUCUCGGCCAACACAUUAAAACCAUUCUUGGAUUUCAAGUAGCCAACUUUGCCUUUUAUGUAUUCUUACAUAGUUUCCUCUUGAAGAAAAAAAAAGCAGAGUUUUUGUUUGGAAUUCUCGGGUGCCAA,0.499
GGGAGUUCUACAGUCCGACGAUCCUCUUCCAUGUUUAUACUUGGCCUCUUCUGCAAGAGGAAUCUCUUGAAAACAGGGGCACACAGAAAUUUGAUUUGUGGCCAAAUUGGAUGAAAAAGAUGAGGCUCUAAGGUGGAAUUCUCGGGUGCCAA,0.345
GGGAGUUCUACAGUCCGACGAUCAGAAAACUUUUUAGAGAAAAACUAUUUAAAACUGUCAGAUCCUGACCAGCAAGCCCCCCCCCAGCCCCCCUUCCAAGUGACUCCGUGCCUUGAGUGUGUCUGCGUGUUUAUGGAAUUCUCGGGUGCCAA,0.828
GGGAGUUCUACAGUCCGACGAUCGCACUGUUGAAUAUGGGUAUCGGCUUUCUUUUUCACUUUGACUCUUAACAUUAUCAGUCAACUUCCACAUUAAUGAAAGUUGACCAUAGUUAUUUCCAAAUAAAAAGAAAUGGAAUUCUCGGGUGCCAA,0.379
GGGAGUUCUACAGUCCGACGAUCUAGAGUCACUGACCCUGGAGCGGCUCUCCUGAGAGGUGCUGCAGGCAAAGUGAGACUGACACCUCACUGAGGAAGGGAGACAUAUUCUUGGAGAACUUUCCAUCUGCUUGUGGAAUUCUCGGGUGCCAA,0.584

# Block 3 — target: CCNE2, cyclin fold, Cln2 fusion (human); method: yeast growth competition, sequencing; matrix: yeast; setting: strong parent motif; baseline: not given; reading: higher = stronger binding
# Starting sequence: GMNC docking peptide (human); KNAKRNLSSEFAN
Variant,normalised enrichment score
KNAKRRLSSEFAN [N6R],0.799
KNALRNLSSEFAN [K4L],0.552
KNAKYNLSSEFAN [R5Y],0.29
KNAYRNLSSEFAN [K4Y],0.532
KNAERNLSSEFAN [K4E],-0.296
KNAKRNLMSEFAN [S8M],3.32
KNAKRNLDSEFAN [S8D],0.796
KNAKRTLSSEFAN [N6T],0.55
KNAKRDLSSEFAN [N6D],0.643
KFAKRNLSSEFAN [N2F],1.03
KNAKANLSSEFAN [R5A],0.209
KNAGRNLSSEFAN [K4G],0.248
KNAKRHLSSEFAN [N6H],0.567
KNAKRNLSSEVAN [F11V],0.343
KNAKRNISSEFAN [L7I],0.347
KNAKRNLSSFFAN [E10F],1.2

# Block 4 — method: protein binding microarray; form: double-stranded DNA, one strand shown; matrix: in vitro; concentration: not given; baseline: not given; reading: higher = stronger binding
# Target: Histone acetyltransferase KAT6A, winged helix 2, GST fusion (KAT6A, Homo sapiens, UniProt Q92794, residues 85-181)
# Setting: 8-mer, flanks averaged, mean of 2 arrays, mostly near background
# Target sequence (chain): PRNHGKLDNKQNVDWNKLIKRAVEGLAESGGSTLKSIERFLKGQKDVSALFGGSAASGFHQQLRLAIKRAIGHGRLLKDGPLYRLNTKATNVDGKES
Strand,E-score
AGCGCGCC,0.116
CCCTGTCA,-0.0387
TAACTCGA,0.158
CATCCAGG,0.0582
ACACGAGT,-0.0445
AGCAAAGC,0.063
ATAGAGCG,-0.0766
CTGCTGGA,0.082
ATGGGCCA,0.0469
GATCGGGA,0.0309
CAGTCAGA,-0.0591
CGATACCG,-0.046
TCGCCTAA,-0.00924
CGGGGCTA,0.0479
CGAACTGA,-0.0898
ATTATTAG,-0.00946
AACGCGGG,0.156
ACCATCCG,0.00168
CGTTGTCC,-0.00354
GTCCTGCA,-0.0762
CACAGATC,-0.216
CCACTCCC,-0.151
ATCACCCG,0.13
CTGCGAAC,-0.00212

# Excerpt of the above (block 2):
Strand,RBNS enrichment (R)
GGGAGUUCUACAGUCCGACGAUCGCACUGUUGAAUAUGGGUAUCGGCUUUCUUUUUCACUUUGACUCUUAACAUUAUCAGUCAACUUCCACAUUAAUGAAAGUUGACCAUAGUUAUUUCCAAAUAAAAAGAAAUGGAAUUCUCGGGUGCCAA,0.379
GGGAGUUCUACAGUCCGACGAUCGUUUGUGAAGGCAGCAGUUAAGGGCACAAAGACAGCCAUGGGGACAUUUAUGUAAAUAUGUUUAAUUGCCACACUGCAGCUGAACGGUGUGUAGUAUUUUCCCAGUCAGCUGGAAUUCUCGGGUGCCAA,0.643
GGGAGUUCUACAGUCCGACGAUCCUCUUCCAUGUUUAUACUUGGCCUCUUCUGCAAGAGGAAUCUCUUGAAAACAGGGGCACACAGAAAUUUGAUUUGUGGCCAAAUUGGAUGAAAAAGAUGAGGCUCUAAGGUGGAAUUCUCGGGUGCCAA,0.345
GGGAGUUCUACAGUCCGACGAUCUUUCUCGGCCAACACAUUAAAACCAUUCUUGGAUUUCAAGUAGCCAACUUUGCCUUUUAUGUAUUCUUACAUAGUUUCCUCUUGAAGAAAAAAAAAGCAGAGUUUUUGUUUGGAAUUCUCGGGUGCCAA,0.499
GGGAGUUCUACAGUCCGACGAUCAGUUUACUGCAAGACAGCUGCGCUGUCAAGACUGAGCUGGCUUCAGGCUGUGUCCGAGCUGUGUCACAUGCAGCUCUACCCACGCUUUUAAACUCAGGAAUGCACACCUAUGGAAUUCUCGGGUGCCAA,0.269
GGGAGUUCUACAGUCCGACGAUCUAGAGUCACUGACCCUGGAGCGGCUCUCCUGAGAGGUGCUGCAGGCAAAGUGAGACUGACACCUCACUGAGGAAGGGAGACAUAUUCUUGGAGAACUUUCCAUCUGCUUGUGGAAUUCUCGGGUGCCAA,0.584
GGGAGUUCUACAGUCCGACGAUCUUUAAAACCAUCUUGAAAGAACCCUUAUUGGCAUAUGCAGGAGACAUCUGCUCAUUGUCUAAUGCCUGACCCCCAUUCAUUUAGUUAUUCAAUAUAGACUUGCCCAAUUAUGGAAUUCUCGGGUGCCAA,0.506
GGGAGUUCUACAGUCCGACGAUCAGAAAACUUUUUAGAGAAAAACUAUUUAAAACUGUCAGAUCCUGACCAGCAAGCCCCCCCCCAGCCCCCCUUCCAAGUGACUCCGUGCCUUGAGUGUGUCUGCGUGUUUAUGGAAUUCUCGGGUGCCAA,0.828
